Measured values of several laboratories.
Compare with care: the assays were run in different laboratories.

CC[C@H](C)[C@H](NC(=O)[C@H](C)NC(=O)CNC(=O)[C@H](C)NC(=O)[C@H](CCCCN)NC(=O)[C@H](CO)NC(=O)[C@H](C)NC(=O)[C@H](CCSC)NC(=O)CN)C(=O)N[C@@H](C)C(=O)NCC(=O)N[C@@H](CCCCN)C(=O)N[C@H](C(=O)N[C@@H](C)C(=O)N[C@@H](CCCCN)C(=O)N[C@H](C(=O)N[C@@H](C)C(=O)N[C@@H](CC(C)C)C(=O)N[C@@H](CCCCN)C(=O)N[C@@H](C)C(=O)N[C@@H](CC(C)C)C(N)=O)C(C)C)[C@@H](C)CC has an MIC of 2.5 µg/mL (Escherichia coli; CFT073 wild type; 18 h, 37 °C, minimal salts medium).
With [O-][N+]1=C(c2ccsc2)C2=NCCCN2c2ccccc21 the MIC was 0.06 to 1 µg/mL (Prevotella spp.).
CSCC[C@H](NC=O)C(=O)N[C@@H](CCCNC(=N)N)C(=O)N[C@H](C(=O)NCC(=O)N[C@@H](CC(N)=O)C(=O)N[C@@H](C)C(=O)N[C@@H](CC(N)=O)C(=O)NCC(=O)N1CCN(c2cc3c(cc2F)c(=O)c(C(=O)O)cn3C2CC2)CC1)[C@@H](C)O gave an MIC of 64 µM (Enterobacter cloacae; clinical isolate).
OB(O)c1cnn(-c2cccc(Cl)c2)c1 gave an MIC of greater than 2050 µg/mL (Enterobacter cloacae; bacterial growth; AmpC overproducer clinical isolate; without cefotaxime).
CCCCCCCCCCCCCC(=O)N[C@H]1C(=O)N[C@@H](CN)C(=O)N[C@@H](CO)C(=O)N[C@@H](Cc2ccc(O)cc2)C(=O)O[C@H]1C has an MIC of 4 µg/mL (Staphylococcus aureus; SH1000; together with: phosphatidylcholine, molar ratio 2).
CC[C@H](C)[C@@H]1NC(=O)[C@H](CC(C)C)NC(=O)[C@@H](NC(=O)[C@H](CCCNC(=N)N)NC(=O)[C@@H](NC(=O)CNC(=O)[C@@H]2CCCN2C(=O)[C@@H]2CCC(=O)NCC(=O)N[C@@H](CO)C(=O)N[C@@H](CCCNC(=N)N)C(=O)NCC(=O)N[C@@H](Cc3c[nH]c4ccccc34)C(=O)NCC(=O)N[C@@H](Cc3ccccc3)C(=O)N2)C(C)C)CSSC[C@@H](C(=O)N[C@@H](CC(=O)O)C(=O)O)NC(=O)[C@H](Cc2c[nH]c3ccccc23)NC1=O gave an MIC of greater than 128 µg/mL (Streptococcus pyogenes; broth microdilution; sensitive clinical isolate; overnight, 37 °C).
CC[C@H](C)[C@H](NC(=O)[C@H](CCCNC(=N)N)NC(=O)[C@H](CO)NC(=O)[C@H](Cc1ccc(O)cc1)NC(=O)[C@@H](NC(=O)[C@@H](NC(=O)[C@H](C)NC(=O)CNC(=O)[C@H](CCCCN)NC(=O)[C@H](CCCCN)NC(=O)CCNC(=O)CCCCCNC(=O)[C@H](CCCNC(=N)N)NC(=O)CCCCCNC(=O)[C@H](CCCNC(=N)N)NC(=O)[C@H](CCCNC(=N)N)NC(=O)CCCCCNC(=O)[C@H](CCCNC(=N)N)NC(=O)[C@H](CCCNC(=N)N)NC(=O)CCCCCNC(=O)[C@H](CCCNC(=N)N)NC(=O)[C@H](CCCNC(=N)N)NC(=O)CCCCCNC(=O)[C@@H](N)CCCNC(=N)N)C(C)C)[C@@H](C)O)C(=O)N[C@@H](CO)C(=O)NCC(=O)N[C@@H](CCC(N)=O)C(=O)N[C@@H](Cc1ccc(O)cc1)C(=O)N[C@@H](CCCCN)C(=O)O has an MIC of 6 µM (Escherichia coli; ATCC 25922; 1 h, 37 °C, after 25% fetal bovine serum).
For CC(C)CCCCCCCCC/C=C/C(=O)N[C@@H](CC(=O)O)C(=O)N[C@H]1CNC(=O)[C@@H]2CCCN2C(=O)[C@H](C(C)C)NC(=O)[C@@H](CN)NC(=O)CNC(=O)[C@H](CC(=O)O)NC(=O)CNC(=O)[C@H](CC(=O)O)NC(=O)[C@H](CC(=O)O)NC(=O)[C@H]2CCCCN2C1=O, the MIC was 4 µg/mL (Staphylococcus aureus; broth microdilution; MRSA USA300, Mueller-Hinton broth, Mg2+ 10 mg/L; 16 h, 37 °C, together with: Ca2+ 2.5 mM).
C#CCOc1ccc(CN[C@@]2(C)C[C@H](O[C@H]3[C@H](Oc4c5cc6cc4Oc4ccc(cc4Cl)[C@@H](O)[C@@H](NC(=O)[C@@H](CC(C)C)NC)C(=O)N[C@@H](CC(N)=O)C(=O)N[C@H]6C(=O)N[C@H]4C(=O)N[C@H](C(=O)N[C@H](C(=O)N[C@@H](CCCNC(=N)N)C(N)=O)c6cc(O)cc(O)c6-c6cc4ccc6O)[C@H](O)c4ccc(c(Cl)c4)O5)O[C@H](CO)[C@@H](O)[C@@H]3O)O[C@@H](C)[C@H]2O)cc1OC gave an MIC of 2 µM (Enterococcus faecium; VRE vanB).
CC(=O)N[C@@H](CC(C)C)C(=O)N[C@H]1CSSC[C@@H](C(=O)N2CCC[C@H]2C(N)=O)NC(=O)[C@H](CCCCN)NC(=O)[C@H](C(C)C)NC(=O)[C@H](CCCCN)NC(=O)CNC(=O)[C@H](CC(C)C)NC(=O)[C@H](Cc2ccccc2)NC(=O)[C@H](CCCCN)NC(=O)[C@H](CC(C)C)NC(=O)[C@H](CCC(=O)O)NC(=O)[C@H](Cc2ccccc2)NC(=O)[C@H](CCCNC(=N)N)NC(=O)[C@H](CCCCN)NC(=O)[C@H](CC(C)C)NC(=O)[C@H](CC(=O)O)NC(=O)[C@@H]2CCCN2C(=O)[C@H](CCCCN)NC(=O)[C@H](C(C)C)NC(=O)[C@H](CCCCN)NC(=O)[C@H](CCCCN)NC(=O)[C@H](CCCCN)NC1=O gave an MIC of 1.25 to 2.5 µM (Pseudomonas fluorescens; broth dilution; CGMCC strain; 24 h).
For COc1ccc(C2=[N+]([O-])c3ccccc3N3CCCN=C23)cc1, the MIC was 0.125 to 2 µg/mL (Prevotella spp.).
CC[C@H](C)[C@H](NC(=O)[C@H](CC(=O)O)NC(=O)[C@H](C)NC(=O)[C@@H](N)CO)C(=O)N[C@@H](CO)C(=O)N[C@@H](CC(C)C)C(=O)N[C@@H](CCC(=O)O)C(=O)N[C@@H](CCCNC(=N)N)C(=O)N[C@@H](CC(C)C)C(=O)O has an MIC of 200 µg/mL (Staphylococcus haemolyticus).
For [O-][N+]1=C(Cc2ccccc2)C2=NCCCN2c2ccccc21, the MIC was 0.5 to 4 µg/mL (Prevotella spp.).
With CC1(C)C(NC(=O)C(=NOC2(C(=O)O)CC2)c2csc(N)n2)C(=O)N1OS(=O)(=O)O (centres unmarked) the MIC was 4 µg/mL (Enterobacter cloacae; ATCC 2468, NDM-positive; compound alone).

For quick reference, copied from above:
OB(O)c1cnn(-c2cccc(Cl)c2)c1 gave an MIC of greater than 2050 µg/mL (Enterobacter cloacae; bacterial growth; AmpC overproducer clinical isolate; without cefotaxime).
CCCCCCCCCCCCCC(=O)N[C@H]1C(=O)N[C@@H](CN)C(=O)N[C@@H](CO)C(=O)N[C@@H](Cc2ccc(O)cc2)C(=O)O[C@H]1C has an MIC of 4 µg/mL (Staphylococcus aureus; SH1000; together with: phosphatidylcholine, molar ratio 2).
